Results of several laboratories.
Compare with care: the assays were run in different laboratories.

SMILES | sample | tested at | pH | temperature | setting | measurement | value
O=c1cc(/C=C/c2ccc(N(c3ccccc3)c3ccccc3)cc2)oc(/C=C/c2ccc(N(c3ccccc3)c3ccccc3)cc2)c1 | acetonitrile/water 1:19 v/v | 10 µM | – | 298 K | aggregate nanoparticle suspension | emission maximum | 565 nm
CCCCN1C(=O)c2cccc3c(NCCCCCCCCCCN4CCOCC4)ccc(c23)C1=O | acetonitrile | – | – | – | – | emission maximum | 524 nm
O=c1cc(/C=C/c2ccc(N3CCOCC3)cc2)oc(/C=C/c2ccc(N3CCOCC3)cc2)c1 | acetonitrile | 10 µM | – | 298 K | – | emission maximum | 557 nm
CCCCN1C(=O)c2cccc3c(NCCCCCN4CCOCC4)ccc(c23)C1=O | DMSO | – | – | – | – | emission maximum | 533 nm
COC(=O)c1ccccc1-c1c2ccc(=O)cc-2oc2c1ccc1cccc(N)c12 | HCl 12.5 mM | – | pH 1.9 | – | 10% DMSO | emission maximum | 770 nm
CC1(C)C(/C=C/C2=C(Cl)C(=C/C=C3/N(CCCCCC(=O)O)c4ccccc4C3(C)C)/C[N+](C)(C)C2)=[N+](CCCCCC(=O)O)c2ccccc21 | water | – | – | – | – | emission maximum | 765 nm
COc1ccc2nc(-c3ccc(N(C)C)cc3)sc2c1 | PBS | – | – | – | free dye | emission maximum wavelength | 432 nm
O=c1cc(/C=C/c2ccc(N3CCCC3)cc2)oc(/C=C/c2ccc(N3CCCC3)cc2)c1 | acetonitrile/water 1:19 v/v | 10 µM | – | 298 K | aggregate nanoparticle suspension | emission maximum | 599 nm
CC1(C)C(=CC=C2CCCC(C=CC3=[N+](CCC[N+](C)(C)C)c4ccc(S(=O)(=O)O)cc4C3(C)C)=C2SCCOCCOCCC(=O)O)N(CCC[N+](C)(C)C)c2ccc(S(=O)(=O)O)cc21 | PBS | – | pH 7.4 | – | – | emission maximum wavelength | 807 nm

Some of these lines once more:
SMILES | sample | tested at | pH | temperature | setting | measurement | value
COc1ccc2nc(-c3ccc(N(C)C)cc3)sc2c1 | PBS | – | – | – | free dye | emission maximum wavelength | 432 nm
